Measurements gathered from unrelated publications.
Every numbered part comes from another study and shows a few of its results, in no order.

Series 1
Target: RING finger protein unkempt homolog, zinc fingers 1-6, GST-SBP tag (UNK, Homo sapiens, UniProt Q9C0B0, residues 30-357)
Method: RNA Bind-n-Seq
Form: RNA
Sample: in vitro
Tested at: not given
Setting: RNA with constant flanks, human-mouse chimeric sites, ends assumed
Relative to: input RNA pool
Reading: higher = stronger binding
Constant ends, left off below: GGGAGUUCUACAGUCCGACGAUC … CAACAGAGGAUUGAGCAUCA
Construct (chain): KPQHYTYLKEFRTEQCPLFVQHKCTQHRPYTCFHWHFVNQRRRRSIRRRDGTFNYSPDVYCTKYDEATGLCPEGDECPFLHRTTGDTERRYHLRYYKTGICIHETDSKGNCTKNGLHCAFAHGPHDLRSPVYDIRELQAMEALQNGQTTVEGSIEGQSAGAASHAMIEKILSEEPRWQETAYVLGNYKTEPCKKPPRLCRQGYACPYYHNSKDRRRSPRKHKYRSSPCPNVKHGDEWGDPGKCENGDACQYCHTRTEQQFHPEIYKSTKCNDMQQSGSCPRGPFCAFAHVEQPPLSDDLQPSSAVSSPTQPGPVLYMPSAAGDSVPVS
Sequence | bound/input enrichment
GGCUGCUACUAUUCUCCCUGGAGUGGCUGGAGUUCCCGCCGGAGCGCGGCCAGACUAAUUUUAGAAAAUGCCAAGUAGGAAGUUUGUUGAGGGUGAAGUGGUCAGAGGCCGAUGGCCUGG | 5.65 ratio
CUGUGUGUGCUGAAUAAAUGGCUUGUAAAGAAGUUUUCCAAGUUGUAAACCCAUGCUGUUAUUAUAGUUGCUGCAAAAUGUUCUUCCUAUUGAUGUUUUUAUUUGUUAACUGAAGGUCUC | 0.336 ratio
AACUUCGUACAUAGAUUUCCUUUUGUAGCUGUUUCAAUUGGCUUCCUUGUGAAUAAAGAGAUGGAGUUUGGAAUUGUGUACAGCUGUGUGGAAGAUAAGAUGUACACCGGCAGGAAAGGG | 0.964 ratio
GCAGGAUCUUCUAAGUACCAGUGGGACAUUAUGAAAUCCCUUGGCCUCUCUGAUGACGACAUAGUGAAGUUUUCUGAAGCAGAGCACUGGCUUGAUUAUUUCCCGCCACUGGCCGUUCAG | 0.139 ratio
GGAAGUACAUUAAUGGAGAUUGAUGGUGACAAAGGCAAGCAGGGCGGGCCCACCUACUACAUAGAUACCAAUGCCCUCCGCGUGCCCAGGGAGAACAUGGAGGCCAUCUCACCACUCAAG | 0.296 ratio
UGACAAGGGCACUGCAGAGCCAUGCCUUUCCUUGACAUCCAGAAAAGGCUGGGCAUCAGCCUGGACCGGCACUUUAUGUUCCUAAGCGCAGAACAGCCCUACAAGAUCGCCGCUCGGUGC | 0.0749 ratio
AAAUUUCCCCUCCUGAGACCUCCUCCGAAGUUGGAGUCUCUUACAGAUGCCUCAUCCCCUGUUAGCGUUUUAGUUUGGACCACACAACCUUGGACAAUUCCCGCCAACCAGGCAAUUUGC | 2.16 ratio
ACUCAGAGAUCCACCUCCCAAAGUGCUGGGAGUAAAGGUGUGGCCACCACACCUAACUUCAUAGACAUUUUAUAAAGUUAAUAUGAAUCUUCCUGUUCGUCCAGGGAAGAAAGAUUUGUU | 1.12 ratio

Series 2
Target: RNA binding protein fox-1 homolog 2, RRM domain, GST-SBP tag (RBFOX2, Homo sapiens, UniProt O43251-10, residues 100-194)
Method: RNA Bind-n-Seq
Form: RNA
Sample: in vitro
Tested at: 365 nM
Setting: natural RNA segment, single round, ends assumed
Relative to: no-protein control
Reading: higher = stronger binding
Constant ends, left off below: GGGAGUUCUACAGUCCGACGAUC … UGGAAUUCUCGGGUGCCAA
Construct (chain): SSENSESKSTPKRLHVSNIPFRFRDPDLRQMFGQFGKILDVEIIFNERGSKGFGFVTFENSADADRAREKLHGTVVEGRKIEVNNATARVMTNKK
Sequence | RBNS enrichment (R)
GGUUAUGUUCUGGGUCUUUGUAAUCGCUGAUCUCUGUAACAGAGCCUCUGUUUAUUUUUGCUUGUUGGAAAUAGGGUUCAACCAUGCAUAGUUAGAAUCACUAUGCAUCU | 3.35
UUAAAAUCUUGCUCACCUUCAGAGCAGAGGGAAUACCUAUCUUCAGAUAUCCGUCCAUUUUCAUCUCUUAAUUGUAGUCAAAAGUAUGACUUGAGAGUGUUGCUCUGGUA | 0.39
UUUCCAUUUUGAAUGUGUUUGGACUAAAACAAUAAACUACUGAUGUCUGCAGCAUUUAUCUAUGUCCUAAUUUAAUCUGAAGUUAUAUUUUCUCAAAUAUUUUCUUCCAG | 0.666
GGGCUCCAAGCUGCUUGAGGGGGUCAACCUUGGACCAAAGUUGCCUUAAGCCCCAAGUAUAAAAGAGCUUAGGGGAAGGUGUAAGGGCCACAGGCUGGAAGCUGACAGCC | 0.368
AUCUCUGACCCAAUGAGAAAGAGACACUCAUCUCUGGGAAAUGUGCCUCUCUGGAAUCUCCAUCCCAACCAUUUCCUGUUCUUGGGAAGGUCCUACGGGCUUCAGAAUCU | 0.232
GGUAUCCAGGCUCCAACGACCUCAUGCAGGACUCAGACCUGACCCACUGAAUCCCGAGGAGAGGCUGAAAAAAUCAGAGUAGAAACCAGCAACAUUUACAAGUGUGUCUG | 0.343
UGUAGAAUGGCUUUUUCUUUUUCCUCUUAAGAGUUCUAUUCUUCAGGUAGAUAAUUUUUCAAAUGUGAAUUAUCUUUUGUGUCUAUAUUGAUAGCUCUUAAAGGAGUGAA | 0.481
CUAGCAUCUGGAGACCGAAUAUCCCCAUGCUCAGAAGUAAAGUGACAAUCAGAACCAGGUACAAGCCAGUAAAGCGGCAGAUGACUGCCACUCAGCCCACAUACGGCAUU | 0.302

Series 3
Target: Histone acetyltransferase KAT6A, winged helix 2, GST fusion (KAT6A, Homo sapiens, UniProt Q92794, residues 85-181)
Method: protein binding microarray
Form: double-stranded DNA, one strand shown
Sample: in vitro
Tested at: not given
Setting: 8-mer, flanks averaged, mean of 2 arrays, mostly near background
Relative to: not given
Reading: higher = stronger binding
Target sequence (chain): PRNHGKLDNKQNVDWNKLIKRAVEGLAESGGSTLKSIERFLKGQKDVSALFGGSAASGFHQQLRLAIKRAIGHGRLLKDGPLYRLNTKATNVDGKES
Sequence | E-score
GATGGGCA | 0.0511
CCGGCTGC | 0.227
ACGATCAC | -0.144
TCAGGCAA | -0.0469
ACAGCTAA | 0.0111
CAGTCCTA | -0.23
GAGTGGTA | -0.106
AATTGCTC | 0.0828
AAACAGTT | 0.0141
CAATACTC | 0.013
CAACACCC | -0.156
AGTAACAA | -0.0225
AATGGCTA | -0.167
CTCGATTA | 0.075
GGAAATAA | 0.153
ACGACGCC | -0.0629
CCTTTACC | -0.201
AAATTCTC | -0.0457
GAATGGGC | 0.0298
AAATGTTA | -0.182

Series 4
Target: Sal-like protein 4, full length isoform B (SALL4, Homo sapiens, UniProt Q9UJQ4-2, residues 1-616)
Method: universal PBM
Form: double-stranded DNA, one strand shown
Sample: in vitro
Tested at: not given
Setting: 8-mer, flanks averaged, mean of replicates
Reading: higher = stronger binding
Sequence | E-score
GAGACAAA | 0.0406
CGGCCTGC | -0.319
CCGTTAGA | 0.0115
AGCACCCT | -0.241
CCACAAGA | -0.0572
CAGCGTGG | -0.188
ACCTGATA | 0.166
CCCTTACA | 0.0921
TACCGCTA | 0.0693
AGGGCATC | -0.271
GCAAGGCC | -0.283
GCGAGGTA | -0.0188
AGTAGTCC | 0.00388
GCAGCCGA | -0.271
CTTTGAAC | -0.047
GACGTTGA | -0.0781
GCGCATCA | 0.0191
AGAAGCCA | -0.0498
GCGCGTAA | -0.0427
ACGCAACG | -0.17
ATAAGCGG | 0.115
CGGGTTAG | -0.315
CGCGGAGA | -0.172
CCTAGGTC | -0.221
AGGTATAA | 0.25

Series 5
Target: Ras GTPase-activating protein-binding protein 1, full length (G3BP1, Homo sapiens, UniProt Q13283)
Sequence of UniProt Q13283 (whole entry, looked up): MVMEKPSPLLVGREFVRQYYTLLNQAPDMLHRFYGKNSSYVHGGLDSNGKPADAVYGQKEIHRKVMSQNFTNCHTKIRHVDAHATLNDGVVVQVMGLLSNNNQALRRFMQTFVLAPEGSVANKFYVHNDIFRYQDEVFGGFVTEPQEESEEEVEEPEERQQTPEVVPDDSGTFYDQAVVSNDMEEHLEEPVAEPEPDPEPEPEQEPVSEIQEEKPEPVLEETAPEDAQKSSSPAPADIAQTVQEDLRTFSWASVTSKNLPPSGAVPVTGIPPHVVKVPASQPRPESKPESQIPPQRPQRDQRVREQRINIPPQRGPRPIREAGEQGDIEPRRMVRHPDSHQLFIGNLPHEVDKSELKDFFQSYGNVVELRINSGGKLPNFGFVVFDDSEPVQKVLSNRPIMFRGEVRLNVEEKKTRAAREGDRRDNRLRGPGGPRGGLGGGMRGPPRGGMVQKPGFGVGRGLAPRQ
Method: RNA Bind-n-Seq
Form: RNA
Sample: in vitro
Tested at: 200 nM
Setting: whole 134-nt RNA, ends assumed
Together with: 150 mM KCl
Relative to: input library
Reading: higher = stronger binding
Constant ends, left off below: GGGAGUUCUACAGUCCGACGAUC … UGGAAUUCUCGGGUGUCAAGG
Sequence | log2 enrichment
AAGUCCUGUGCUACACAUCGUAUGUACCGAAUCGGGUGGGAAAAAGGGUUUUUGGGAAAGUAUUAUGUUACGCCGUUCGGAUCUGCACUU | 0.331
UAACUUUAGAGGAGGAUCUGAUGGAUAUGGCAGUGGACGUGGAUUUGGGGAUGGCUAUAAUGGGUAUGGAGGAGGACCUGGAGGUGCCAA | 0.0813
CAAGUCCUGUGCUACACAUCGUAUGUACCGAAUCGGGGAAAGGGAAAGGGAAAGGAAAGUAUUAUGUUACGCCGUUCGGAUCUGCACUUC | -0.136
GUCCUGUGCUACACAUCGUAUGUACCGAAUCGGGCCCCCGGGCCCCCGGCCCCCGGGGAAAGUAUUAUGUUACGCCGUUCGGAUCUGCAC | -0.564
CAAGUCCUGUGCUACACAUCGUAUGUACCGAAUCGGGAGGGAAAGGGAAAAAGGGAAAGUAUUAUGUUACGCCGUUCGGAUCUGCACUUC | 0.528
UGUGCUACACAUCGUAUGUACCGAAUCGGGCCCCCCCGGGGCCCCCCCGGGGCCCCCCCGGGGAAAGUAUUAUGUUACGCCGUUCGGAUC | -1.97
UAACUUUAGAGGAGGAUCUGAUGGAUAUGGCAGUGGACGUGGAUUUGGGGAUGGCUAUAAUGGGUAUGGAGGAGGACCCGGAGGUGGCAA | 0.0616
UCCUGUGCUACACAUCGUAUGUACCGAAUCGGGGAAAGGGGUUUUUGGGGUUUUUGGGGAAAGUAUUAUGUUACGCCGUUCGGAUCUGCA | 0.795
UCCUGUGCUACACAUCGUAUGUACCGAAUCGGGGAAAAAGGGGAAAAAAAGGGGAGGGGAAAGUAUUAUGUUACGCCGUUCGGAUCUGCA | 0.714

Some of these lines once more (series 1):
Sequence | bound/input enrichment
GGCUGCUACUAUUCUCCCUGGAGUGGCUGGAGUUCCCGCCGGAGCGCGGCCAGACUAAUUUUAGAAAAUGCCAAGUAGGAAGUUUGUUGAGGGUGAAGUGGUCAGAGGCCGAUGGCCUGG | 5.65 ratio
CUGUGUGUGCUGAAUAAAUGGCUUGUAAAGAAGUUUUCCAAGUUGUAAACCCAUGCUGUUAUUAUAGUUGCUGCAAAAUGUUCUUCCUAUUGAUGUUUUUAUUUGUUAACUGAAGGUCUC | 0.336 ratio
AACUUCGUACAUAGAUUUCCUUUUGUAGCUGUUUCAAUUGGCUUCCUUGUGAAUAAAGAGAUGGAGUUUGGAAUUGUGUACAGCUGUGUGGAAGAUAAGAUGUACACCGGCAGGAAAGGG | 0.964 ratio
GCAGGAUCUUCUAAGUACCAGUGGGACAUUAUGAAAUCCCUUGGCCUCUCUGAUGACGACAUAGUGAAGUUUUCUGAAGCAGAGCACUGGCUUGAUUAUUUCCCGCCACUGGCCGUUCAG | 0.139 ratio
GGAAGUACAUUAAUGGAGAUUGAUGGUGACAAAGGCAAGCAGGGCGGGCCCACCUACUACAUAGAUACCAAUGCCCUCCGCGUGCCCAGGGAGAACAUGGAGGCCAUCUCACCACUCAAG | 0.296 ratio
UGACAAGGGCACUGCAGAGCCAUGCCUUUCCUUGACAUCCAGAAAAGGCUGGGCAUCAGCCUGGACCGGCACUUUAUGUUCCUAAGCGCAGAACAGCCCUACAAGAUCGCCGCUCGGUGC | 0.0749 ratio
AAAUUUCCCCUCCUGAGACCUCCUCCGAAGUUGGAGUCUCUUACAGAUGCCUCAUCCCCUGUUAGCGUUUUAGUUUGGACCACACAACCUUGGACAAUUCCCGCCAACCAGGCAAUUUGC | 2.16 ratio
ACUCAGAGAUCCACCUCCCAAAGUGCUGGGAGUAAAGGUGUGGCCACCACACCUAACUUCAUAGACAUUUUAUAAAGUUAAUAUGAAUCUUCCUGUUCGUCCAGGGAAGAAAGAUUUGUU | 1.12 ratio
